Values quoted from earlier work, collected from citations in different studies.
Lines come from different studies, so protocols differ. ± gives the spread as reported. No end group written: not given here.
B1: O-methyl-Tyr, C-amide; chain Y(Me)ECG-NH2 (N-terminus assumed; SMILES COc1ccc(C[C@H](N)C(=O)N[C@@H](CCC(=O)O)C(=O)N[C@@H](CS)C(=O)NCC(N)=O)cc1)

semaglutide — HbA1c change (type 2 diabetes patients; 1.0 mg, 40 weeks; baseline: baseline): -1.86%
COc1ccc(F)cc1C(=O)NCc1ccc(-c2nn([C@@H](C)C(F)(F)F)c(N)c2C(N)=O)cc1 — overall response rate (CLL/SLL patients, prior covalent BTKi; dose not given): 62%
CO[C@@H]1[C@@H]2OP(=O)(O)OC[C@H]2O[C@H]1n1c(Sc2ccc(Cl)cc2)nc2c(N)ncnc21 — Km or Ki (PDE1C; cyclic nucleotide hydrolysis, substrate or inhibitor, isothermal titration calorimetry): 44200 nM
Ac-ELDWDADDIRLQIDNPD-NH2 (N-acetyl, C-amide) — IRF5 protein level (western blot; peptide, Tsk/+ mouse, myocardium; subcutaneous, 1 mg/kg/day, 21 days): decreased
CO[C@H]1/C=C/O[C@@]2(C)Oc3c(C)c(O)c4c(O)c(c(/C=N/N5CCN(C)CC5)c(O)c4c3C2=O)NC(=O)/C(C)=C\C=C\[C@H](C)[C@H](O)[C@@H](C)[C@@H](O)[C@@H](C)[C@H](OC(C)=O)[C@@H]1C — protein level (Western blot, item: P-glycoprotein; human, intestine; dose not given, 23 d; baseline: baseline): 3.5 fold
C[C@]12CCC[C@@H]1[C@H]1CCc3cc(O)ccc3[C@@H]1CC2 (single isomer, unassigned) — EC50 (HT-22; cell protection; together with: glutamate 10 mM): 239 nM
CC(=O)O[C@H]1Cc2ccccc2N(C(N)=O)c2ccccc21 — epileptiform discharge duration decrease (mouse pilocarpine chronic epilepsy; p.o., 150 mg/kg once daily, 6 weeks; baseline: vehicle): 92%
CCn1cc(C(=O)N2CCOCC2)c(=O)c2cc(NC3Cc4ccccc4C3)cnc21 — amygdala reactivity (fMRI; generalised anxiety disorder patients; single dose): decreased
O=c1c(O)c(-c2ccc(O)c(O)c2)oc2cc(O)cc(O)c12 — EC50 (DPPH radical scavenging; together with: DPPH 50 µM): 6220 nM
Cc1ccc([N+](=O)[O-])cc1S(=O)(=O)N(C)/N=C/c1cnc2ccc(Br)cn12 — IC50 (ATM; kinase activity, inhibitor; together with: 10 µM ATP): 2300 nM
C[C@]1(c2nc3c(C(N)=O)cccc3[nH]2)CCCN1 — pathological complete response rate (human, early-stage TNBC; 50 mg twice daily, then AC, together with: paclitaxel, carboplatin AUC 6): 51%
C[C@@]12CC=C3c4ccc(O)cc4CC[C@@H]3[C@H]1CC[C@H]2O — EC50 (HT-22; cell protection; together with: iodoacetic acid 40 µM): 679 nM
B1 — EC50 (hydroxyl radical scavenging): 32 ± 6 nM
Nc1ncnc2c1nc(Br)n2[C@@H]1O[C@@H]2COP(=O)(O)O[C@H]2[C@H]1O — Km or Ki (PDE5; cyclic nucleotide hydrolysis, substrate or inhibitor, isothermal titration calorimetry): 23400 nM
CCCc1nn(C)c2c(=O)[nH]c(-c3cc(S(=O)(=O)N4CCN(C)CC4)ccc3OCC)nc12 — blood pressure reduction (ambulatory blood pressure monitoring, item: MAP; healthy and hypertensive humans; 100 mg, evening dosing): -5.3 mmHg
C[C@@H]1CCO[C@H]2Cn3cc(C(=O)NCc4ccc(F)cc4F)c(=O)c(O)c3C(=O)N12 — responders (item: HIV RNA below 50 copies/mL; treatment-experienced HIV adults; dose not given, 48 weeks, phase III): 71%
COCCOCCOCCOc1ccc(C2=N[C@@](C)(C(=O)O)CS2)c(O)c1 — iron clearing efficiency (bile duct-cannulated rats, non iron-overloaded; oral, 300 µmol/kg, 24 h, monosodium salt): 5.5 ± 1.9%

A few entries again:
CO[C@@H]1[C@@H]2OP(=O)(O)OC[C@H]2O[C@H]1n1c(Sc2ccc(Cl)cc2)nc2c(N)ncnc21 — Km or Ki (PDE1C; cyclic nucleotide hydrolysis, substrate or inhibitor, isothermal titration calorimetry): 44200 nM
Cc1ccc([N+](=O)[O-])cc1S(=O)(=O)N(C)/N=C/c1cnc2ccc(Br)cn12 — IC50 (ATM; kinase activity, inhibitor; together with: 10 µM ATP): 2300 nM
COCCOCCOCCOc1ccc(C2=N[C@@](C)(C(=O)O)CS2)c(O)c1 — iron clearing efficiency (bile duct-cannulated rats, non iron-overloaded; oral, 300 µmol/kg, 24 h, monosodium salt): 5.5 ± 1.9%
